Measured values gathered from unrelated publications.
Lines come from different studies, so protocols differ. ± marks the error that the study gave.

| Compound | cell line | test | test system | conditions | IC50 |
| --- | --- | --- | --- | --- | --- |
| COc1ccc2nc(Cl)c(-c3nc4cc(C)c(C)cc4[nH]3)cc2c1 | BEL-7404 | cell growth or viability, MTT |  | 48 h | 39.9 µM |
| CC1(C)CCC(CN2CCN(c3ccc(C(=O)NS(=O)(=O)c4ccc(NCC5COCCO5)c([N+](=O)[O-])c4)c(N4CCCOc5nc6[nH]ccc6cc54)c3)CC2)=C(c2ccc(Cl)cc2)C1 (stereo not drawn) | primary human CLL cells | apoptosis |  | NK Tert stroma co-culture | 7.5e-05 µM |
| Cc1ccc(-c2nc(-c3cccnc3)[nH]c2-c2ccc(C)cc2)cc1 | BT-474 | cell growth or viability, SRB |  | 48 h | 42.4 µM |
| CO[C@@H]1[C@@H](O[C@@H]2O[C@H](C)[C@@H](O[C@H]3C[C@@](C)(O)[C@@H](O)[C@H](C)O3)[C@H](N(C)C)[C@H]2O)[C@@H](CC=O)C[C@@H](C)[C@@H](O[C@H]2CC[C@H](N(C)C)[C@@H](C)O2)/C=C/C=C/C[C@@H](C)OC(=O)C[C@H]1OC(=O)c1ccc(C(C)(C)C)cc1 | GES1 | cell growth or viability, CCK-8 |  | 72 h | 31.2 µM |
| CC1=C2[O][Ru-]([Cl])[O+]=C2C=CN1CCCN1C=CC2=[O+][Ru-]([Cl])[O]C2=C1C.Cc1ccc(C(C)C)cc1.Cc1ccc(C(C)C)cc1 | KYSE-70 | cell growth or viability, crystal violet |  | 96 h | > 20 µM |
| CC(C)N(C[C@H]1O[C@@H](n2cnc3c(N)ncnc32)[C@H](O)[C@@H]1O)C1CC2CN(Cc3ccc(OC(F)(F)F)cc3)CC2C1 (stereo partly drawn) | H460 wild type | cell growth |  | 72 h | > 100 µM |
| COc1ccc2cc3[n+](cc2c1OCc1cn(Cc2cccc(Cl)c2)nn1)CCc1cc2c(cc1-3)OCO2 | SMMC-7721 | cell growth or viability, MTT |  |  | 41.1 µM |
| Clc1nc2cc3c(cc2cc1-c1nc2ccccc2[nH]1)OCO3 | BEL-7404 | cell growth or viability, MTT |  | 48 h | > 100 µM |
| CN1CCN(/C=C/C(=O)c2ccc3[nH]c4ncc(-c5ccc(N6CCN(C)CC6)cc5)cc4c3c2)CC1 | Ba/F3 NPM-ALK | cell proliferation, [3H]-thymidine incorporation |  |  | 0.36 µM |
| Cc1ccc2nc(Cl)c(-c3nc4cc(Br)ccc4[nH]3)cc2c1 | BEL-7404 | cell growth or viability, MTT |  | 48 h | > 100 µM |
| CC(C)=CCc1c(O)cc2oc3cc(O)c(O)c(CC=C(C)C)c3c(=O)c2c1O | SMMC-7721 | cell growth or viability |  | 48 h | 6.57 µM |
| CCOC(=O)C[C@H]1Oc2ccccc2C(=O)[C@]1(C)[N+](=O)[O-] | human Fibroblast | cell growth or viability, SRB |  | 96 h | > 100 µM |
| N#Cc1cccc(-c2ccc(=O)n(Cc3cccc(-c4ncc(OCC5CCN(CCCCCCC(=O)Nc6cccc7c6C(=O)N(C6CCC(=O)NC6=O)C7=O)CC5)cn4)c3)n2)c1 (stereo not drawn) | EBC-1 | cell growth or viability, CCK-8 |  | 72 h | 0.00563 µM |
| Clc1nc2ccccc2cc1-c1nc2ccccc2[nH]1 | L02 | cell growth or viability, MTT |  | 48 h | > 100 µM |
| CN1CCN(c2ccc(Nc3ncc(Cl)c(Nc4ccccc4P(C)(C)=O)n3)cc2Br)CC1 | BaF3 EGFR 19del/T790M/C797S | cell growth, inhibitor, CCK-8 |  | 72 h | 0.09 µM |
| CC(=O)c1cnc(N)nc1N1CC[C@H]1c1nn2ccc(Cl)c2c(=O)n1-c1ccccc1 | purified human B cells | refers to: CD69 and IL-6 |  | added: anti-IgM | < 0.01 µM |
| CCOC(=O)CS/C(Nc1ccccc1)=C(\C#N)C(=O)Nc1nnc(NC(=O)c2ccccc2)s1 | WI-38 fibroblasts |  |  | 48 h | 22.7 ± 3.8 µM |
| CCCCCC(=O)O[C@H]1[C@H](C)O[C@@H](O[C@H]2[C@H](N(C)C)[C@@H](O)[C@H](O[C@H]3[C@@H](CC=O)C[C@@H](C)[C@@H](O[C@H]4CC[C@H](N(C)C)[C@@H](C)O4)/C=C/C=C/C[C@@H](C)OC(=O)C[C@@H](O)[C@@H]3OC)O[C@@H]2C)C[C@@]1(C)O | GES1 | cell growth or viability, CCK-8 |  | 72 h | 38.8 µM |
| CC(=O)OC[C@H]1O[C@@H](NC(=O)/C=C/c2ccc(C(C)C)cc2)[C@H](OC(C)=O)[C@@H](OC(C)=O)[C@@H]1OC(C)=O | human T-lymphocyte | cell growth or viability |  | 72 h | 99 µM |
| O=C1/C(=C/c2ccccc2F)CNC/C1=C\c1ccccc1F | GES1 | cell growth or viability, MTT |  | 72 h | 2.1 µM |
| Cc1cc(C)c([N+]#[C][Pd-2]([Cl])([Cl])[C]#[N+]c2c(C)cc(C)cc2C)c(C)c1 | MRC5 | cell growth or viability |  |  | > 100 µM |
| CN1CCCNC(=O)CCC(=O)NCCCN(C)CCCNc2cccc3c2C(=O)c2cccc(c2C3=O)NCCC1 | Ca9-22 | cell growth or viability, CCK-8 |  | 48 h | > 20 µM |
| CCn1cc(/C=C/c2sc3ccccc3[n+]2CC)c2ccccc21 | HTB26 | cell growth or viability, MTT |  | 24 h | 5.18 µM |
| Cc1ccc2nc(Cl)c(-c3nc4cc(Cl)c(Cl)cc4[nH]3)cc2c1 | BEL-7404 | cell growth or viability, MTT |  | 48 h | > 100 µM |
| C=C[CH2][Pd-]([Cl])[Cl].CC(C)c1cccc(C(C)C)c1-n1c[n+](-c2c(C(C)C)cccc2C(C)C)c2c1-c1cccc3cccc-2c13 | NTERA2 | cell growth or viability, MTT |  | 72 h | 0.4 µM |
| O=C(OCc1ccc(F)cc1)N(Cc1cccc(CN2CCCCC2)c1)[c-]1cccc1.[Fe+2].c1cc[cH-]c1 | primary human CLL cells | cell viability, annexin V/7-AAD flow cytometry |  | 48 h | 4.8 ± 2 µM |

| Compound | cell line | test | test system | conditions | IC50 |
| --- | --- | --- | --- | --- | --- |
| Oc1cccc2[nH]c(/C(=N/OCc3ccccc3)c3cc4cccc(O)c4o3)nc12 | NCI-H441 | cell growth or viability, ATP luminescence |  | 72 h | 42.3 µM |
| CO[C@@H]1[C@@H](O[C@@H]2O[C@H](C)[C@@H](O[C@H]3C[C@@](C)(O)[C@@H](OC(=O)Nc4ccc(C)cc4)[C@H](C)O3)[C@H](N(C)C)[C@H]2O)[C@@H](CC=O)C[C@@H](C)[C@@H](O[C@H]2CC[C@H](N(C)C)[C@@H](C)O2)/C=C/C=C/C[C@@H](C)OC(=O)C[C@H]1O | GES1 | cell growth or viability, CCK-8 |  | 72 h | 41.7 µM |
| CCCCCC(O)/C=C/C=O (stereo not drawn) | MDA-MB-231 proteome | cysteine probe labelling, isoTOP-ABPP |  | most cysteines, extrapolated | > 100 µM |
| N=C(N)NCCC[C@H](N)C(=O)NC(CC(=O)N[C@@H](Cc1c[nH]c2ccccc12)C(=O)O)c1ccc2ccccc2c1 (stereo partly drawn) | BT-474 | cell growth or viability, ATP luminescence |  | 72 h | > 100 µM |
| N#Cc1cccc(-c2ccc(=O)n(Cc3cccc(-c4ncc(OCC5CCN(CCCCCCCCC(=O)Nc6cccc7c6C(=O)N(C6CCC(=O)NC6=O)C7=O)CC5)cn4)c3)n2)c1 (stereo not drawn) | EBC-1 | cell growth or viability, CCK-8 |  | 72 h | 0.0214 µM |
| CC/C(=C(\c1ccc(O)cc1)c1ccc(OCCN(C)CCOCCOCCOCCOCCN(C)CCOc2ccc(/C(=C(/CC)c3ccccc3)c3ccc(O)cc3)cc2)cc1)c1ccccc1 | MCF7 (ER-positive) | cell growth |  | 96 h | 0.06 µM |
| NC(CSSCC(N)C(=O)N1CCn2cc(-c3ccccc3)nc2C1CC1CCCCC1)C(=O)N1CCn2cc(-c3ccccc3)nc2C1CC1CCCCC1 (stereo not drawn) | MP41 GNA11 Q209L | cell growth |  | 72 h | 11.9 ± 1 µM |
| Cc1ccc(C(=O)C2Sc3nnc(-n4nc(C)cc4C)n3NC2c2ccc(Cl)cc2)cc1 (racemic) | DND41 | cell growth or viability, imaging |  | 72 h | > 100 µM |
| CC(=O)OC[C@H]1O[C@@H](NC(=O)CCCc2ccc3c(c2)CCCC3)[C@H](OC(C)=O)[C@@H](OC(C)=O)[C@@H]1OC(C)=O | human T-lymphocyte | cell growth or viability |  | 72 h | 116 µM |
| CCCCCCCCCCCCCCn1c(-c2cccnc2)nc(-c2ccc(C)cc2)c1-c1ccc(C)cc1 | BT-474 | cell growth or viability, SRB |  | 24 h | > 100 µM |
| CC(=O)OC[C@H]1O[C@@H](NC(=O)NC(=O)/C=C/c2ccc(C(C)C)cc2)[C@H](OC(C)=O)[C@@H](OC(C)=O)[C@@H]1OC(C)=O | human T-lymphocyte | cell growth or viability |  | 72 h | 16 µM |
| CCCCn1c(-c2cccnc2)nc(-c2ccc(C)cc2)c1-c1ccc(C)cc1 | BT-474 | cell growth or viability, SRB |  | 48 h | 40.5 µM |
| COc1ccc(C(C)(O)C(C)(C)C(=O)O)cc1 (stereo not drawn) | LS174 | cell growth or viability |  | 72 h | > 200 µM |
| Clc1nc2cc3c(cc2cc1-c1nc2cc(Br)ccc2[nH]1)OCO3 | BEL-7404 | cell growth or viability, MTT |  | 48 h | > 100 µM |
| CC[C@H](C)[C@H](NC(=O)[C@H](Cc1ccc(OP(=O)(O)O)cc1)NC(=O)[C@H](CC(=O)O)NC(=O)[C@@H](N)CCCCN)C(=O)N[C@H](C(=O)N[C@@H](CC(C)C)C(=O)N[C@@H](CCCCNC(=O)CNC(=O)[C@H](CCCCN)NC(=O)[C@H](CCCNC(=N)N)NC(=O)[C@H](Cc1ccccc1)NC(=O)[C@H](CCCNC(=N)N)NC(=O)[C@H](CCCNC(=N)N)NC(=O)[C@H](CCCNC(=N)N)NC(=O)[C@H](CO)NC(=O)[C@H](Cc1ccc(O)cc1)NC(=O)[C@H](CO)NC(=O)[C@H](CC(C)C)NC(=O)[C@H](CCCNC(=N)N)NC(=O)[C@@H](N)CCCNC(=N)N)C(N)=O)C(C)C | HPAEC | ERK1/2 phosphorylation, inhibitor, Western blot |  | 0.5 h pre-incubation, serum-free medium, added: 1 ng/mL VEGF | 16.1 µM |
| Cc1ccc(CC(=O)N(CCCn2ccnc2)c2nc3ccccc3s2)c(C)c1 | SW480 3D tumour organoids | cytotoxicity | 0.4% DMSO | 72 h, 2% Matrigel | 15.7 µM |
| CC(=O)[O][Pt]([Cl])([Cl])[O]C(=O)CCCc1ccccc1.N.N | BXPC-3 | cell growth or viability |  |  | 10.1 µM |
| Cc1cc(C)c(-n2c3c([n+](-c4c(C)cc(C)cc4C)[c]2[Cu-][Cl])-c2cccc4cccc-3c24)c(C)c1 | NTERA2 | cell growth or viability, MTT |  | 72 h | 4 µM |
| CCOc1ccccc1-c1ccc2[nH]c3ncc(/C=C/c4ccccc4)cc3c2c1 | Ba/F3 NPM-ALK | cell proliferation, [3H]-thymidine incorporation |  |  | 4 µM |
| CC/C(=C(\c1ccc(O)cc1)c1ccc(OCCN(C)CCOCCOCCOCCOCCOCCOCCOCCOCCOCCN(C)CCOc2ccc(/C(=C(/CC)c3ccccc3)c3ccc(O)cc3)cc2)cc1)c1ccccc1 | MCF7 (ER-positive) | cell growth |  | 96 h | 2.1 µM |
| COc1ccc2cc3[n+](cc2c1OCc1cn(Cc2ccccc2)nn1)CCc1cc2c(cc1-3)OCO2 | SMMC-7721 | cell growth or viability, MTT |  |  | 35.4 µM |
| O=C(CCCCC1SCC2NC(=O)NC21)NCCCCC1CNC(=O)C(=O)N1CC1CCCN1CC(CC1CCCCC1)N1CC(Cc2ccc(O)cc2)N(CCc2ccccc2)C(=O)C1=O (stereo not drawn) | WM 266-4 | cell growth or viability, ATP luminescence |  | 72 h | > 100 µM |
| CC(C)c1cccc(C(C)C)c1[N+]#[C][Pt-]([Cl])([Cl])=[C](Nc1cccc(CN[C](Nc2c(C(C)C)cccc2C(C)C)=[Au][Cl])c1)Nc1c(C(C)C)cccc1C(C)C | MRC5 | cell growth or viability |  |  | > 100 µM |
| N=C(N)NCCC[C@@H](N)C(=O)N[C@@H](CC(=O)N[C@H](Cc1ccccc1)C(N)=O)c1ccc2ccccc2c1 | BT-474 | cell growth or viability, ATP luminescence |  | 72 h | 1.17 µM |
| COc1c(O)cc2oc3cc4c(c(O)c3c(=O)c2c1CCC(C)(C)O)CCC(C)(C)O4 | SMMC-7721 | cell growth or viability |  | 48 h | > 40 µM |

Repeated from above:
| Compound | cell line | test | test system | conditions | IC50 |
| --- | --- | --- | --- | --- | --- |
| Cc1ccc2nc(Cl)c(-c3nc4cc(Br)ccc4[nH]3)cc2c1 | BEL-7404 | cell growth or viability, MTT |  | 48 h | > 100 µM |
| N#Cc1cccc(-c2ccc(=O)n(Cc3cccc(-c4ncc(OCC5CCN(CCCCCCC(=O)Nc6cccc7c6C(=O)N(C6CCC(=O)NC6=O)C7=O)CC5)cn4)c3)n2)c1 (stereo not drawn) | EBC-1 | cell growth or viability, CCK-8 |  | 72 h | 0.00563 µM |
| CCCCn1c(-c2cccnc2)nc(-c2ccc(C)cc2)c1-c1ccc(C)cc1 | BT-474 | cell growth or viability, SRB |  | 48 h | 40.5 µM |
| CC(C)=CCc1c(O)cc2oc3cc(O)c(O)c(CC=C(C)C)c3c(=O)c2c1O | SMMC-7721 | cell growth or viability |  | 48 h | 6.57 µM |
